Published values pooled from the literature.
Compare with care: the assays were run in different laboratories. Values joined by “and” are separate records of one study, mostly repeats; a detail may differ. Numbers after ± are the reported error.
Cnr2: Cannabinoid receptor 2 (Cnr2, Mus musculus, UniProt P47936)
EGFR L858R/T790M: Epidermal growth factor receptor (EGFR, Homo sapiens, UniProt P00533, L858R/T790M)
Oprk1: Kappa-type opioid receptor (Oprk1, Mus musculus, UniProt P33534)

N=C(N)NCCC[C@@H]1NC(=O)[C@H](CCCCNC(=O)CC[C@H](NC(=O)CCOCCOCCOCCOCCNC(=O)CC[C@H](NC(=O)CN2CCN(CC(=O)O)CCN(CC(=O)O)CCN(CC(=O)O)CC2)C(=O)NCCOCCOCCOCCOCCC(=O)N[C@@H](CCC(=O)NCCCC[C@@H]2NC(=O)[C@@H](Cc3ccccc3)NC(=O)[C@H](CC(=O)O)NC(=O)CNC(=O)[C@H](CCCNC(=N)N)NC2=O)C(=O)NCCCC[C@@H]2NC(=O)[C@@H](Cc3ccccc3)NC(=O)[C@H](CC(=O)O)NC(=O)CNC(=O)[C@H](CCCNC(=N)N)NC2=O)C(=O)NCCCC[C@@H]2NC(=O)[C@@H](Cc3ccccc3)NC(=O)[C@H](CC(=O)O)NC(=O)CNC(=O)[C@H](CCCNC(=N)N)NC2=O)NC(=O)[C@@H](Cc2ccccc2)NC(=O)[C@H](CC(=O)O)NC(=O)CNC1=O [indium-111 labelled]
tissue uptake (female athymic nude mice, kidney; intravenous, 3 µCi, 1 h, U-87 MG glioma xenograft): 6.67 ± 1.01 %ID/g

Cc1cc2c(cc1Cl)Cc1c(C(=O)NN3CCCCC3)nn(-c3ccc(Cl)cc3Cl)c1-2
selectivity ratio (Cnr2; radioligand displacement; mouse brain and spleen homogenates; together with: [3H]CP-55,940; reference: Ki CB1 over Ki CB2): 14

CC(=O)NC(Cc1ccc(Br)c(Cl)c1)C(=O)N[C@@H](C)C(=O)N1CCC[C@H]1C(=O)N1CCC[C@H]1C(=O)N[C@@H](CCC(=O)O)C(=O)N[C@@H](Cc1c[nH]cn1)C(=O)N[C@@H](CO)C(=O)N[C@H](C(=O)N[C@@H](C)C(N)=O)[C@@H](C)OP(=O)(O)O (some centres unmarked)
inhibition (ITK (Homo sapiens, UniProt Q08881); enzyme activity, inhibitor; 10 µM): 0.6%

Cc1cc(S(=O)(=O)Nc2ncccn2)c(F)cc1N(C)C1CCN([C@H](C)c2ccccc2)CC1
selectivity ratio (SCN8A (Homo sapiens, UniProt Q9UQD0); ion current, inhibitor, automated patch clamp; reference: other NaV subtypes over NaV1.6): > 100 fold

C=CC(=O)Nc1cccc(-c2cnc3[nH]cc(C(=O)NC(C)(C)C)c3n2)c1
selectivity ratio (TYK2 (Homo sapiens, UniProt P29597); enzyme activity, inhibitor; reference: JAK3 over TYK2): 282 fold

C[C@H](CCC(=O)N[C@H](CC(c1c[nH]c2ccccc12)c1c[nH]c2ccccc12)C(=O)O)[C@H]1CC[C@H]2[C@@H]3CC[C@@H]4C[C@H](O)CC[C@]4(C)[C@H]3CC[C@]12C
selectivity ratio (ST6GAL1 (Homo sapiens, UniProt P15907); reference: ST3GAL1 IC50 over ST6GAL1 IC50): > 44

C[C@H](NC(=O)[C@H](Cc1ccccc1)NC(=O)c1ccc(Br)cc1)C(=O)N[C@H](C(=O)N[C@@H](CCCC[N+](C)(C)C)C(=O)N[C@@H](CO)C(N)=O)C1CCCC1
selectivity ratio (Chromobox protein homolog 6 (Homo sapiens, UniProt O95503); competitive fluorescence polarization; reference: Cbx7 over Chromobox protein homolog 6): 9.1 fold

N=C(N)NCCC[C@@H]1NC(=O)[C@H](CCCCNC(=O)CNC(=O)CNC(=O)CNC(=O)CC[C@H](NC(=O)CCOCCOCCOCCOCCNC(=O)CC[C@H](NC(=O)CN2CCN(CC(=O)O)CCN(CC(=O)O)CCN(CC(=O)O)CC2)C(=O)NCCOCCOCCOCCOCCC(=O)N[C@@H](CCC(=O)NCC(=O)NCC(=O)NCC(=O)NCCCC[C@@H]2NC(=O)[C@@H](Cc3ccccc3)NC(=O)[C@H](CC(=O)O)NC(=O)CNC(=O)[C@H](CCCNC(=N)N)NC2=O)C(=O)NCC(=O)NCC(=O)NCC(=O)NCCCC[C@@H]2NC(=O)[C@@H](Cc3ccccc3)NC(=O)[C@H](CC(=O)O)NC(=O)CNC(=O)[C@H](CCCNC(=N)N)NC2=O)C(=O)NCC(=O)NCC(=O)NCC(=O)NCCCC[C@@H]2NC(=O)[C@@H](Cc3ccccc3)NC(=O)[C@H](CC(=O)O)NC(=O)CNC(=O)[C@H](CCCNC(=N)N)NC2=O)NC(=O)[C@@H](Cc2ccccc2)NC(=O)[C@H](CC(=O)O)NC(=O)CNC1=O [indium-111 labelled]
tissue uptake (female athymic nude mice, kidney; intravenous, 3 µCi, 4 h, U-87 MG glioma xenograft): 4.4 ± 0.63 %ID/g

O=C(O[C@@H]1Cc2c(O)cc(O)cc2O[C@@H]1c1cc(O)c(O)c(O)c1)c1cc(O)c(O)c(O)c1
selectivity ratio (EGFR L858R/T790M; kinase activity; reference: EGFR T790M/L858R over wild-type EGFR): 0.97

C[n+]1ccc(C(=O)NC2CCC3(O)C4Cc5ccc(O)c6c5C3(CC[N+]4(C)CC3CC3)C2O6)cc1 (centres unmarked)
selectivity ratio (Oprk1; reference: Ki kappa over Ki mu): 0.7

CCN(Cc1ccccc1)C(=O)CCc1nc(CN2CCN(C(=O)Cc3ccc(OC)c(OC)c3)CC2)no1
activation V1/2 (KCNQ5 (Homo sapiens, UniProt Q9NR82); potassium current, whole-cell patch clamp; transfected cells; 10 µM): -68.2 mV

CCCCCCCCCCCCOc1c(O)cc(C(=O)OC2Cc3c(O)cc(O)cc3OC2c2cc(O)c(O)c(O)c2)cc1O (centres unmarked)
selectivity ratio (EGFR L858R/T790M; kinase activity; reference: EGFR T790M/L858R over wild-type EGFR): 1.16

COCCCN1CCc2c(Cc3ccc(Cl)cc3)[nH]c3c(OC(F)F)ccc(c23)C1=O
selectivity ratio (cAMP and cAMP-inhibited cGMP 3',5'-cyclic phosphodiesterase 10A, catalytic domain (PDE10A, Homo sapiens, UniProt Q9Y233); enzyme activity; reference: IC50 PDE5A1 over PDE10A): 176

CCc1c(Cl)cccc1N1CCN(C[C@@H](F)CCNC(=O)c2cc3ccccc3[nH]2)CC1
selectivity ratio (dopamine D3 and D2 receptors; binding; reference: Ki D2 over Ki D3): > 1000 fold and 1060 fold

CCCC[C@H](NC(=O)CNC(=O)CNC(=O)c1ccc(NN)nc1)C(=O)N[C@H]1CC(=O)NCCCC[C@@H](C(N)=O)NC(=O)[C@H](Cc2c[nH]c3ccccc23)NC(=O)[C@H](CCCNC(=N)N)NC(=O)[C@@H](Cc2ccccc2)NC(=O)[C@H](Cc2c[nH]cn2)NC1=O [technetium-99m labelled]
tissue uptake ratio (C57 mouse, B16/F1 melanoma-bearing; intravenous, 4 h; reference: tumour over kidney): 2.5

Nc1nc(Cl)nc2c1ncn2Cc1cc(OCC(F)F)cc(OC(F)F)c1
selectivity ratio (PDE1C (Homo sapiens, UniProt Q14123); enzyme activity, inhibitor; reference: PDE1C over PDE8A1): 562 fold

C[C@@H](NC(=O)[C@@H](CCC(N)=O)NC(=O)[C@@H](C)NC(=O)[C@@H](CCCCN)NC(=O)[C@@H](CCC(N)=O)NC(=O)[C@@H](C)NC(=O)[C@@H](CCCCN)NC(=O)[C@@H](CCC(N)=O)NC(=O)[C@@H](C)NC(=O)[C@@H](CCC(N)=O)NC(=O)[C@@H](CCCCN)NC(=O)[C@@H](C)NC(=O)[C@@H](CCC(N)=O)NC(=O)[C@@H](CCCCN)NC(=O)[C@@H](C)NC(=O)[C@@H](CCC(N)=O)NC(=O)[C@@H](C)NC(=O)[C@@H](CCCCN)NC(=O)[C@@H](CCC(N)=O)NC(=O)[C@@H](C)NC(=O)[C@@H](CCCCN)NC(=O)[C@@H](CO)NC(=O)[C@@H](Cc1ccc(O)cc1)NC(=O)CNC(=O)CNC(=O)CN)C(=O)N[C@H](CCCCN)C(=O)N[C@H](CCC(N)=O)C(=O)N[C@H](C)C(=O)N[C@H](CCCCN)C(=O)N[C@H](CCC(N)=O)C(=O)O
association rate constant (binding, SPR Langmuir fit; rVλ6Wil fibrils; 300 nM, pH 7.4): 360000 M⁻¹ s⁻¹

COC(=O)C=CCCC(NC(=O)c1ccncc1C(=O)O)C(=O)NC(C(=O)N1CC(=O)CC1C(=O)NC(C(=O)NC(C(N)=O)C1CCCCC1)C1CCCCC1)C(C)(C)C (centres unmarked)
selectivity ratio (TGM2 (Homo sapiens, UniProt P21980); transamidation activity; reference: TG2 over FXIII-A2): 19

C[C@H]1[C@H]2CCC[C@]1(c1cccc(O)c1)CCN2CCc1ccccc1
selectivity ratio (Oprk1; radioligand competition binding; CHO membranes; together with: [3H]diprenorphine; reference: Ki KOR over Ki MOR): 14.6 fold

Cc1cc2c(cc1Cl)-c1c(c(C(=O)NC3C4(C)CCC(C4)C3(C)C)nn1-c1ccc(Cl)cc1Cl)C2 (centres unmarked)
selectivity ratio (Cnr2; radioligand displacement; mouse brain and spleen homogenates; together with: [3H]CP-55,940; reference: Ki CB1 over Ki CB2): 36

Cc1ccc2c(n1)c(-c1cccc(S(C)(=O)=O)c1)c(C)n2C/C(F)=C/CN
selectivity ratio (LOXL1 (Homo sapiens, UniProt Q08397); inhibitor, Amplex Red; reference: IC50 LOXL1 over IC50 LOXL2): > 80 fold

CCC1(c2cccc(-c3cn(C)nc3C)c2)C2=C(Nc3n[nH]cc31)C(F)C(C)(C)CC2=O (single isomer, unassigned)
selectivity ratio (GSK3A (Homo sapiens, UniProt P49840); tau Thr231 phosphorylation; HEK293 expressing human tau; reference: IC50 GSK3β over IC50 GSK3α): 37 fold

CC(=O)O[C@H]1OC[C@@H]2C=C([C@@]3(C)CCCC(C)(C)C3)CC[C@H]12
selectivity ratio (PPIF (Homo sapiens, UniProt P30405); PPIase enzyme activity, inhibitor; reference: PPIF over cyclophilin A): ~18 fold

Some of these lines once more:
Cc1ccc2c(n1)c(-c1cccc(S(C)(=O)=O)c1)c(C)n2C/C(F)=C/CN
selectivity ratio (LOXL1 (Homo sapiens, UniProt Q08397); inhibitor, Amplex Red; reference: IC50 LOXL1 over IC50 LOXL2): > 80 fold

CCC1(c2cccc(-c3cn(C)nc3C)c2)C2=C(Nc3n[nH]cc31)C(F)C(C)(C)CC2=O (single isomer, unassigned)
selectivity ratio (GSK3A (Homo sapiens, UniProt P49840); tau Thr231 phosphorylation; HEK293 expressing human tau; reference: IC50 GSK3β over IC50 GSK3α): 37 fold
